Measurements from different studies.
Each line is one published result; not all experiments were run side by side. ± gives the spread as reported.
Cell line: HepG2

Compound	assay	setting	IC50
C=C1C(=O)[C@@]23CC[C@@H]4[C@](C)(COC(C)=O)CCC[C@@]4(CO)[C@@H]2[C@@H](O)C[C@@H]1C3	cell growth or viability, MTT	–	6 µM
Clc1ccc2[nH]c(-c3cc4ccccc4nc3Cl)nc2c1	cell growth or viability, MTT	48 h	11.5 µM
C/C(=N\NC(=S)SCc1ccccc1)c1ccc(S(=O)(=O)N2CCC(C)CC2)cc1	cell growth or viability, MTT	–	91.3 µM
NC(=S)NNC(=O)c1cc2ccccc2oc1=O	cell growth or viability, SRB	72 h	17.7 µM
Cc1c(C(=O)NNC(=O)Nc2ccc([N+](=O)[O-])cc2)nnn1Cc1nc2ccccc2[nH]1	cell growth or viability, MTT	48 h	25 µM
COC(C)(C)/C=C/C[C@@](C)(O)[C@H]1CC[C@]2(C)[C@@H]1CC[C@@H]1[C@@]3(C)CCC(=O)C(C)(C)[C@@H]3CC[C@]12C	cell growth or viability, SRB	–	19.1 µM
N#Cc1cccc(-c2ccc(=O)n(Cc3cccc(-c4ncc(OCC5CCN(CC(=O)NCCOCCOCCOCCNc6ccc7c(c6)C(=O)N(C6CCC(=O)NC6=O)C7=O)CC5)cn4)c3)n2)c1 (centres unmarked)	cell growth or viability, CCK-8	72 h	0.672 µM
COc1cc(OC)c(-c2coc3c4c(c(OC)cc3c2=O)OC(C)(C)C=C4)cc1OC	cell growth or viability, MTT	72 h	8.05 µM
CC(=O)O[C@H]1CC[C@]2(C)[C@H]3CC=C4[C@@H]5CC(C)(C)CC[C@]5(CO)CC[C@@]4(C)[C@]3(C)CC[C@H]2C1(C)C	cell growth or viability, SRB	–	72.8 µM
Clc1nc2ccccc2cc1-c1nc2ccccc2[nH]1	cell growth or viability, MTT	48 h	> 100 µM
c1ccc(CCCNc2ncnc3cc(OCC4CCN(CCNc5ccnc6ccccc56)CC4)ccc23)cc1	cell growth or viability, ATP luminescence	72 h	1.4 µM
Brc1ccc2nc3c4ccc[n+]5c4c4c(ccc[n+]4[Ru-4]546([n+]5ccccc5-c5cccc[n+]54)[n+]4ccccc4-c4cccc[n+]46)c3nc2c1.[O-][Cl+3]([O-])([O-])O.[O-][Cl+3]([O-])([O-])O	cell growth or viability, MTT	72 h	> 100 µM
CC(=O)[O-].O.[Cu+2].[O-]c1ccc(Br)cc1C=NCCN1CCOCC1	cell viability, MTT	72 h	22.7 µg/mL
C[C@]12CC[C@@H]3c4ccc(O)cc4CC[C@H]3[C@@H]1CC[C@@]2(O)c1cn(CC(=O)c2ccc(Cl)cc2)nn1	cell growth or viability, resazurin	72 h	17.8 µM
COC(=O)CNC(=O)COc1ccc2c(C)cc(=O)oc2c1	cell growth or viability, MTT	–	101 µM
CC(=O)OC[C@H]1O[C@@H](Sc2nc3c4cnn(C(=O)CNc5ccc(C)cc5)c4ncn3n2)[C@H](OC(C)=O)[C@@H](OC(C)=O)[C@@H]1OC(C)=O	cell growth or viability, MTT	48 h	0.048 µM
Cn1[c]([Ir-3]234([NH3+])[n]5c6ccc5C(c5c(F)c(F)c(F)c(F)c5F)=C5C=CC(=[N+]52)C(c2c(F)c(F)c(F)c(F)c2F)=c2ccc([n]23)=C(c2c(F)c(F)c(F)c(F)c2F)C2=[N+]4C(=C6c3c(F)c(F)c(F)c(F)c3F)C=C2)[n+](C)c2ccccc21.F[P-](F)(F)(F)(F)F	cell growth or viability, MTT	72 h	1.6 µM
CCOc1cccc(/C=N/c2ccccc2Nc2ccccc2)c1O	cell growth or viability, MTT	48 h	71.2 µM
C=CCSc1nc(N)c2c(F)c(C#N)c(F)c(Cl)c2n1	cell growth or viability, MTT	96 h	31.6 µM
CC1(C)[C@@H](O)CC[C@]2(C)[C@H]3C(=O)C=C4[C@@H]5C[C@@](C)(C(=O)O)CC[C@]5(C)CC[C@@]4(C)[C@]3(C)CC[C@@H]12	cell growth or viability, MTT	–	> 40 µM

Compound	assay	setting	IC50
C[C@@H]1O[C@@H](O[C@H]2[C@H](O[C@H]3CC[C@@]4(C)C(CC[C@]5(C)C4CC=C4C6CC(C)(C)CC[C@]6(C(=O)O[C@@H]6O[C@H](CO)[C@@H](O)[C@H](O)[C@H]6O)CC[C@]45C)[C@]3(C)CO)OC[C@H](O)[C@@H]2O)[C@H](O)[C@H](O[C@@H]2OC[C@@H](O)[C@H](O)[C@H]2O)[C@H]1O (some centres unmarked)	cell growth or viability, CCK-8	24 h	> 50 µM
C=CC(OC(C)=O)c1cc(OC)cc(OC)c1 (centres unmarked)	MTT	24 h	> 50 µM
Cc1ccc2nc(Cl)c(-c3nc4cc(Cl)ccc4[nH]3)cc2c1	cell growth or viability, MTT	48 h	> 100 µM
C=CC(OC(C)=O)c1ccc(OC)cc1 (centres unmarked)	MTT	24 h	> 50 µM
COc1ccc(CS(=O)(=O)c2ccc3ccccc3c2)cc1NCC(=O)O	cell growth or viability, MTS	48 h	0.993 µM
COC1=C(OC)C(O)C(CC=C(C)CCC=C(C)CCC=C(C)C(=O)O)C(C)C1=O (centres unmarked)	cell growth or viability, MTS	72 h	> 25 µM
O=C(Nc1ccccc1)c1ccccc1-n1c(=O)[nH]c2ccc(F)cc2c1=O	cell growth or viability, MTT	24 h	10.1 µM
O=C(NNc1nc(-c2ccccc2)cs1)c1cc2c(ccc3ccccc32)oc1=O	cell growth or viability, SRB	72 h	73.5 µM
O=[N+]([O-])c1ccc(C(c2c(-c3ccccc3)[nH]c3ccccc23)c2c(-c3ccccc3)[nH]c3ccccc23)cc1	cell growth or viability, MTT	24 h	9.73 µM
CCCCCCCCSc1nc(N)c2c(F)c(C#N)c(F)c(Cl)c2n1	cell growth or viability, MTT	96 h	> 100 µM
O=C1C(=NN=c2[nH]ccs2)c2cc(Cl)ccc2N1CCn1ncc2c(=O)[nH]cnc21	cell growth or viability, SRB	72 h	1.74 µM
COc1ccc(/C=C/C(=O)/C=C/c2cn(-c3ccccc3)nc2C(=O)O)c(OC)c1	cell growth	72 h	> 25 µM
COCCOCCSc1nc(N)c2c(F)c(C#N)c(F)c(F)c2n1	cell growth or viability, MTT	96 h	14.9 µM
[CH3][Pd-2]([Cl])([N+](=Cc1ccc[nH]1)Cc1ccccc1)[N+](=Cc1ccc[nH]1)Cc1ccccc1	cell growth or viability, MTT	24 h	> 100 µg/mL
O=S(=O)([O-])[O-].[Cu+2].c1ccc(-c2nnc(-c3ccc4c(c3)OCO4)[nH]2)nc1	cell growth or viability, MTT	24 h	5.98 µM
Fc1ccc2[nH]c(-c3cc4ccccc4nc3Cl)nc2c1	cell growth or viability, MTT	48 h	> 100 µM
C=C1C(=O)[C@@]23CC[C@@H]4[C@](C)(COC(C)=O)CCC[C@@]4(C)[C@@H]2[C@@H](O)C[C@@H]1C3 (single isomer, unassigned)	cell growth or viability, MTT	–	15.5 µM
COc1ccc2nc(Cl)c(-c3nc4cc(C)c(C)cc4[nH]3)cc2c1	cell growth or viability, MTT	48 h	37.8 µM
COc1cc(/C=C/C(=O)/C=C/c2cn(-c3ccccc3)nc2C(=O)O)ccc1O	cell growth	72 h	> 25 µM
Cc1cc(/C=C/C#N)cc(C)c1Oc1cc(Nc2ccc(C#N)cn2)nc2ccncc12	–	48 h	> 120 µM

Compound	assay	setting	IC50
O=C(Cc1ccccc1)NC(=S)Nc1nccs1	cell growth or viability, MTT	48 h	60.9 µM
CCn1c(-c2ccccc2)cs/c1=N/N=C(\C)c1c(O)c2ccccc2oc1=O	cell growth or viability, MTT	48 h	86.9 µM
CC(C)(C)c1cc2c(O)c(c1)Cc1cc(C(C)(C)C)cc(c1OCC(=O)NCc1ccccn1)Cc1cc(C(C)(C)C)cc(c1O)Cc1cc(C(C)(C)C)cc(c1OCC(=O)NCc1ccccn1)COC2	cell growth or viability, MTT	72 h	22.7 µM
NC(=O)c1cccnc1.O=c1[nH]cc(F)c(=O)[nH]1.O=c1[nH]cc(F)c(=O)[nH]1.O=c1[nH]cc(F)c(=O)[nH]1	cell growth or viability, MTT	–	3.43 µM
O=C(/C=C/c1ccc(O)cc1)OCCCC[P+](c1ccccc1)(c1ccccc1)c1ccccc1	cell growth or viability, SRB	24 h	26.8 µM
CC1OC(OCC2OC(Oc3cc(O)c4c(=O)cc(-c5ccc(O)c(O)c5)oc4c3)C(O)C(O)C2O)C(O)C(O)C1O (centres unmarked)	cell growth or viability, resazurin	72 h	> 100 µM
CCn1cc(/C=C/c2ccc3ccccc3[n+]2CC)c2ccccc21	cell growth or viability, MTT	24 h	9.5 µM
CS/C(=N\N=C(/C)c1ccc(S(=O)(=O)N2CCC(C)CC2)cc1)N1CCCCC1	cell growth or viability, MTT	–	33.9 µM
CN(C(=NN=C(c1ccccc1)c1ccccn1)[S][Ga]([Cl])[Cl])C1CCCCC1	cell growth or viability, MTT	48 h	0.14 µM
N#Cc1cccc(-c2ccc(=O)n(Cc3cccc(-c4ncc(OCC5CCN(CC(=O)NCCOCCNc6cccc7c6C(=O)N(C6CCC(=O)NC6=O)C7=O)CC5)cn4)c3)n2)c1 (centres unmarked)	cell growth or viability, CCK-8	72 h	10.7 µM
CC(C)Cn1cc(-c2nc(Nc3ccc(OCCCCCCC(=O)NO)cc3)ncc2F)nn1	cell growth or viability, SRB	72 h	7.43 µM
CCN(CC)c1ccc2c(c1)[O][Pt-2]1([Cl])[N+](=C2)c2ccccc2[NH+]1c1ccccc1 (centres unmarked)	cell viability, MTT	48 h	14.8 ± 0.18 µM
Nc1ccccc1NC(=O)c1ccc(Nc2nccc(-c3cn(C4CCCC4)nn3)n2)cc1	cell growth or viability, SRB	72 h	3 µM
N#Cc1cccc(-c2ccc(=O)n(Cc3cccc(-c4ncc(OCC5CCN(CCCC(=O)Nc6cccc7c6C(=O)N(C6CCC(=O)NC6=O)C7=O)CC5)cn4)c3)n2)c1 (centres unmarked)	cell growth or viability, CCK-8	72 h	> 100 µM
CC(=O)N[C@@H]1[C@@H](OC(C)=O)[C@H](OC(C)=O)[C@@H](COC(C)=O)O[C@H]1Sc1nnc(-c2cc3ccccc3[nH]2)n1-c1ccccc1	cell growth or viability, MTT	–	≥ 50 µM
Cc1cc(C#N)cc(C)c1Oc1cc(Nc2ccc(C#N)cc2)nc2ccncc12	–	48 h	> 128 µM
COC1=CC(c2ccc[nH]2)=NC12OC(C)CC1CCCCCCCc3ccc([nH]3)C12 (centres unmarked)	cell growth or viability	–	4.17 µM
Cc1cc(O)c2c(C(=O)[O-])[n+]3n(c2c1)CCCC3	cell growth or viability, CCK-8	24 h	> 50 µM
OCCn1ncc2c(Nc3ccc(F)cc3)ncnc21	cell growth or viability, MTT	–	> 50 µM
